Experimental data gathered from unrelated publications.
Numbered parts are unrelated; each lists some results of a single study.
UniProt Q12851, sequence (whole entry, looked up): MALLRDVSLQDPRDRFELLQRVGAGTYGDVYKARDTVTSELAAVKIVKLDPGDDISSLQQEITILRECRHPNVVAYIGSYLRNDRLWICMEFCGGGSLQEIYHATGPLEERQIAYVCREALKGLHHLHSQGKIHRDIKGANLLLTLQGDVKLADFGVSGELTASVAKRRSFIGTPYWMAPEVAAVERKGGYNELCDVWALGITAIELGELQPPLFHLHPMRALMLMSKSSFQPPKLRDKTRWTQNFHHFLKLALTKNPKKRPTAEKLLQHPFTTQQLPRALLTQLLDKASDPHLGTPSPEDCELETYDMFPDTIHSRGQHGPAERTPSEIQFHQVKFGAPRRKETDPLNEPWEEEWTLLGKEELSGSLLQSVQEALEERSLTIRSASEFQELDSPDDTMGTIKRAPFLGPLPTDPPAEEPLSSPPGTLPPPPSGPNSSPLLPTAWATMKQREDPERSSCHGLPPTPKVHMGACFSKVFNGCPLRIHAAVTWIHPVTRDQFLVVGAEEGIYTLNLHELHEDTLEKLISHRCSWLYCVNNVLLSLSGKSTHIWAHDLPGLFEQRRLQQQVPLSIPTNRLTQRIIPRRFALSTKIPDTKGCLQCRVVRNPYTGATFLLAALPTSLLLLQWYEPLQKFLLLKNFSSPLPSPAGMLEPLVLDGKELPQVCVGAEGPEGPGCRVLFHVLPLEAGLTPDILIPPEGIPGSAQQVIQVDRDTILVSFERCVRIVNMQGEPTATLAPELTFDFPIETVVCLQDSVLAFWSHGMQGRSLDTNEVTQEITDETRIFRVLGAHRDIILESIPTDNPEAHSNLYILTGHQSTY
UniProt Q9H2K8, sequence (whole entry, looked up): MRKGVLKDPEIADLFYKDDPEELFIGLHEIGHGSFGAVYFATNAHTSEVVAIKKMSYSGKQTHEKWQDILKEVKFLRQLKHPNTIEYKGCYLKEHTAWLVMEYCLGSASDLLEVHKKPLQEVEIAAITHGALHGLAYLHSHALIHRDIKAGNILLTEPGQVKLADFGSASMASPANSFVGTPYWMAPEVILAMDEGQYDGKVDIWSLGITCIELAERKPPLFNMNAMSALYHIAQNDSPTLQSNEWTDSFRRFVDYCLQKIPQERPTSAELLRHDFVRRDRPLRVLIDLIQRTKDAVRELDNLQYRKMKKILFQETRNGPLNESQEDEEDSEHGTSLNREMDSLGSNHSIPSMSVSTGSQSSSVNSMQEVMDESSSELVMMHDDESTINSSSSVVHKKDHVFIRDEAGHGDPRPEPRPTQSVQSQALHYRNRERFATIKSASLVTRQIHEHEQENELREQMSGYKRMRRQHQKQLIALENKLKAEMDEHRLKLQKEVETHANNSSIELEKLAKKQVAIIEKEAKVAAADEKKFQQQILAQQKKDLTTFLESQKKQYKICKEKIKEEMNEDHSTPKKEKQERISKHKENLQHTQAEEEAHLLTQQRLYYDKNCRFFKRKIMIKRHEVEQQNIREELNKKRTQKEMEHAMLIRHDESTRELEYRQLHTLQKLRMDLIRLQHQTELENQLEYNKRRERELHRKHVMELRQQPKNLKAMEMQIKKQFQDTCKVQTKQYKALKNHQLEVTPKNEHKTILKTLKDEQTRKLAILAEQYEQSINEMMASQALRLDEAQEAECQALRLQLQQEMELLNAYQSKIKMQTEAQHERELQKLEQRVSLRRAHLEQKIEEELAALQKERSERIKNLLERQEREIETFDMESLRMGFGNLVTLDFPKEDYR
UniProt P36896, sequence (whole entry, looked up): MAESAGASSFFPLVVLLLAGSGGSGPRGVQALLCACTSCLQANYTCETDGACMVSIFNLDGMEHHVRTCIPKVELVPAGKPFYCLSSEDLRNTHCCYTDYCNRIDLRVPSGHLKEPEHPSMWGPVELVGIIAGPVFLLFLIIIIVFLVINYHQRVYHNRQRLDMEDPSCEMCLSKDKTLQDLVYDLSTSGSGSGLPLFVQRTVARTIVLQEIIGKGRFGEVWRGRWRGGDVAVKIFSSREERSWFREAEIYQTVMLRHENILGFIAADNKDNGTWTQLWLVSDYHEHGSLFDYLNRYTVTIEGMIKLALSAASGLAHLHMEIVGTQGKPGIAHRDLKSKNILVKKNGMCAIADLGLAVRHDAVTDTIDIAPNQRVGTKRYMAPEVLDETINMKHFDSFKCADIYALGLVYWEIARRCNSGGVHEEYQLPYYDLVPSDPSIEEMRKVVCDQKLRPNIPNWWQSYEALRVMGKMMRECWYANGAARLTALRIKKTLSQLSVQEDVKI
UniProt O75716, sequence (whole entry, looked up): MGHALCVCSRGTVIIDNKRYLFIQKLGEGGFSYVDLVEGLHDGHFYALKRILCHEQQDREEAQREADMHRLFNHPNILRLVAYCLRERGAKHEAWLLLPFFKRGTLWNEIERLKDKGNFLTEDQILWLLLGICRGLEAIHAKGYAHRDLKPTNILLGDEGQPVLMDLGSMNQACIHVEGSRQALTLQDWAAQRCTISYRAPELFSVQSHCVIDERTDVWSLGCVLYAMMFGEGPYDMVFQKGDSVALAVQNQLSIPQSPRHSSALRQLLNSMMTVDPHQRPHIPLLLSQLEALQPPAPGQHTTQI
UniProt Q86UX6, sequence (whole entry, looked up): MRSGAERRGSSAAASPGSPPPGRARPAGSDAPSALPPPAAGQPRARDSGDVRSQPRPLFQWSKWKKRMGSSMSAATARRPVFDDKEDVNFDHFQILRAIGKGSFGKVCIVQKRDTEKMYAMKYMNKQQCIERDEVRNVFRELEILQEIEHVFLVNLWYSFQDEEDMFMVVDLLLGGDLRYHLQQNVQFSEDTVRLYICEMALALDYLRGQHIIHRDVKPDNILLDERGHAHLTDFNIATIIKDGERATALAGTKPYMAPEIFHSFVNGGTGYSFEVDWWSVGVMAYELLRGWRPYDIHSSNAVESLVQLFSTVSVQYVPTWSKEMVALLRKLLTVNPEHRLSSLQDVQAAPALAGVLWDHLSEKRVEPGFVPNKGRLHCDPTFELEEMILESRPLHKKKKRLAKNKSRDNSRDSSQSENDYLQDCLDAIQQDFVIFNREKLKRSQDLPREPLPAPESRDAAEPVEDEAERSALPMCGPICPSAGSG
UniProt Q8N752, sequence (whole entry, looked up): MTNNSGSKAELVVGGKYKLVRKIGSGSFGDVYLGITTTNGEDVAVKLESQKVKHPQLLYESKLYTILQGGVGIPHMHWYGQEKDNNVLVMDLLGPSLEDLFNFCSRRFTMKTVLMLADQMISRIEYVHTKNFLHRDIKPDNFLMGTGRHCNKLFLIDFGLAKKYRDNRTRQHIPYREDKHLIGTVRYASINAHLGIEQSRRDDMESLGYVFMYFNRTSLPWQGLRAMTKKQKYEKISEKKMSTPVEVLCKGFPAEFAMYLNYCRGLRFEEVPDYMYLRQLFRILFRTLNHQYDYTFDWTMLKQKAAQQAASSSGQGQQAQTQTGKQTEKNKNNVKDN

Sample 1 — method: competition with immobilised ligand; concentration: 1 µM
SMILES: COc1cc(-c2cn(C3CCc4ccccc4N(CC(F)(F)F)C3=O)nn2)ccc1-n1ccc(C)n1 (stereo not drawn)
| target | assay | remaining binding [%] |
| --- | --- | --- |
| Receptor-type tyrosine-protein kinase FLT3 (FLT3, Homo sapiens, UniProt P36888, D835V/ITD) | cell-free assay | 99 |
| Phosphatidylinositol 4,5-bisphosphate 3-kinase catalytic subunit alpha isoform (PIK3CA, Homo sapiens, UniProt P42336, Q546K) | cell-free assay | 97 |
| Mitogen-activated protein kinase kinase kinase 19 (MAP3K19, Homo sapiens, UniProt Q56UN5) | cell-free assay | 95 |
| Mitogen-activated protein kinase kinase kinase kinase 2 (MAP4K2, Homo sapiens, UniProt Q12851) | cell-free assay | 80 |
| Serine/threonine-protein kinase 16 (STK16, Homo sapiens, UniProt O75716) | cell-free assay | 100 |
| Serine/threonine-protein kinase STK11 (STK11, Homo sapiens, UniProt Q15831) | cell-free assay | 100 |
| BMP-2-inducible protein kinase (BMP2K, Homo sapiens, UniProt Q9NSY1) | cell-free assay | 100 |
| LIM domain kinase 2 (LIMK2, Homo sapiens, UniProt P53671) | cell-free assay | 100 |
| Maternal embryonic leucine zipper kinase (MELK, Homo sapiens, UniProt Q14680) | cell-free assay | 96 |
| Casein kinase I isoform alpha-like (CSNK1A1L, Homo sapiens, UniProt Q8N752) | cell-free assay | 100 |
| Serine/threonine-protein kinase 36 (STK36, Homo sapiens, UniProt Q9NRP7) | cell-free assay | 79 |
| Ephrin type-A receptor 8 (EPHA8, Homo sapiens, UniProt P29322) | cell-free assay | 100 |
| Tyrosine-protein kinase receptor UFO (AXL, Homo sapiens, UniProt P30530) | binding | 93 |
| Epidermal growth factor receptor (EGFR, Homo sapiens, UniProt P00533, L858R) | cell-free assay | 97 |
| Ephrin type-A receptor 7 (EPHA7, Homo sapiens, UniProt Q15375) | cell-free assay | 100 |
| Serine/threonine-protein kinase SBK1 (SBK1, Homo sapiens, UniProt Q52WX2) | cell-free assay | 94 |
| Ribosomal protein S6 kinase alpha-6, C-terminal kinase domain (RPS6KA6, Homo sapiens, UniProt Q9UK32) | cell-free assay | 91 |
| Serine/threonine-protein kinase/endoribonuclease IRE1 (ERN1, Homo sapiens, UniProt O75460) | cell-free assay | 86 |
| Dual specificity tyrosine-phosphorylation-regulated kinase 1B (DYRK1B, Homo sapiens, UniProt Q9Y463) | cell-free assay | 100 |
| Serine/threonine-protein kinase 32C (STK32C, Homo sapiens, UniProt Q86UX6) | cell-free assay | 84 |
| Serine/threonine-protein kinase haspin (HASPIN, Homo sapiens, UniProt Q8TF76) | cell-free assay | 83 |
| Serine/threonine-protein kinase TAO3 (TAOK3, Homo sapiens, UniProt Q9H2K8) | cell-free assay | 72 |
| Activin receptor type-1B (ACVR1B, Homo sapiens, UniProt P36896) | cell-free assay | 83 |
| Fibroblast growth factor receptor 1 (FGFR1, Homo sapiens, UniProt P11362) | cell-free assay | 99 |
| Cyclin-dependent kinase-like 1 (CDKL1, Homo sapiens, UniProt Q00532) | binding | 97 |

Sample 2 — species: mouse; matrix: microsomes or S9; concentration: 2 µM; time: 0.5 h
| Structure (SMILES) | remaining compound [%] |
| --- | --- |
| CC(C)OCCCN(C)C1CCN(S(=O)(=O)c2ccc3[nH]c(=O)ccc3c2)CC1 | 99.9 |
| Cc1nc[nH]c1-c1nccn1[C@H]1CCc2ccccc21 | 14.1 |
| Cc1cn[nH]c1C1(C)CCCN(S(=O)(=O)c2cnn(C)c2)C1 (stereo not drawn) | 33.8 |
| CCCc1cc(C(=O)N(C)CC2Cc3ccccc3CN2C)[nH]n1 (stereo not drawn) | 16 |
| CCCN(CC(=O)N(C)C)C(=O)CS(=O)(=O)N1CCC(C)CC1 | 15.2 |
| Cc1c(CC(=O)O)c2ccccc2n1C(=O)c1ccc(N2CCOCC2)nc1 | 56.5 |
| O=[N+]([O-])c1cccc(F)c1COc1cccc(C(F)(F)F)c1 | > 99 |
| CC(C)Oc1ccccc1NS(=O)(=O)c1cccc(S(=O)(=O)C2CCS(=O)(=O)C2)c1 (stereo not drawn) | 4.64 |

Sample 3 — observed: enzyme activity; action: inhibitor; concentration: 0.5 µM; reference: control
Target: Serine/threonine-protein kinase 10 (STK10, Homo sapiens, UniProt O94804)
UniProt O94804, sequence (whole entry, looked up): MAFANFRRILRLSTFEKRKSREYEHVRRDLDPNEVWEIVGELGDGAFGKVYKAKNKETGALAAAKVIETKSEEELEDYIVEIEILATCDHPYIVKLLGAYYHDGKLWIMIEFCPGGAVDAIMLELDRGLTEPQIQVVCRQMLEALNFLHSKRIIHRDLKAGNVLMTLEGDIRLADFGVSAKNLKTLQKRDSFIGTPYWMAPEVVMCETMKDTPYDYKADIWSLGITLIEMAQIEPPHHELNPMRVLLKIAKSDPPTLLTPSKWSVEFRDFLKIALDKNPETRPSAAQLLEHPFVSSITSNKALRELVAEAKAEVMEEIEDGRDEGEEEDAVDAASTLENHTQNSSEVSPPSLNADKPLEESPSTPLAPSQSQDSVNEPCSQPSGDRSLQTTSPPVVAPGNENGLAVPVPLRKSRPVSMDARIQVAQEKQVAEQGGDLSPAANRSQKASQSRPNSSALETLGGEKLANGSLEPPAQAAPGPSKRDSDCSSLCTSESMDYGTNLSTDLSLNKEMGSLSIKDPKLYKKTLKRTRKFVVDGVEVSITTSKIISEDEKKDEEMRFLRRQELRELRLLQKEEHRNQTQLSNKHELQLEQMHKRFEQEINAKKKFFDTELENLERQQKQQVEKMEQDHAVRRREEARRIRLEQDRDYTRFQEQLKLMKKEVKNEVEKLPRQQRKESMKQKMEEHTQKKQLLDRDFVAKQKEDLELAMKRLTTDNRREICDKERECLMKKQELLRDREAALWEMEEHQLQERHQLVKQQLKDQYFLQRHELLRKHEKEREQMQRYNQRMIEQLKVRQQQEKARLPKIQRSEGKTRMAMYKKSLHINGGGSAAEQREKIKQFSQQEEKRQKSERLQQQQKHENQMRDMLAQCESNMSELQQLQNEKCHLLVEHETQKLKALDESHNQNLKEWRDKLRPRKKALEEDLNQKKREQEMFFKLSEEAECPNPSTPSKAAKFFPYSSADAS
| SMILES | remaining activity |
| --- | --- |
| Cc1cn(-c2cc(NC(=O)c3ccc(C)c(Nc4nccc(-c5cccnc5)n4)c3)cc(C(F)(F)F)c2)cn1 | 103% |
| Cc1nc2cc3nc(-c4cccs4)cnc3cc2n1C | 94.7% |
| Cc1cc2ncc(-c3ccccc3)nc2cc1C | 90.7% |
| O=C(Nc1cccc(Nc2nccc(Nc3cccc(C(F)(F)F)c3)n2)c1)C1CC1 | 90.1% |
| CCOc1nc(NC(=O)Cc2cc(OC)ccc2OC)cc(N)c1C#N | 97.7% |
| COc1cc2c(cc1OC)-c1[nH]nc(Nc3cccc(F)c3)c1C2 | 89% |
| c1ccc(-c2cnc(Nc3ccc(OCCN4CCCC4)cc3)s2)cc1 | 76.9% |
| Nc1cccc(-c2cc3c(Oc4cccc(O)c4)ncnc3[nH]2)c1 | 45.8% |
| Cn1nc2c3c(cccc31)C(=O)c1ccccc1-2 | 94.5% |
| C[C@@H]1CCN(C(=O)CC#N)C[C@@H]1N(C)c1ncnc2[nH]ccc12 | 92.9% |
| COc1cc2ncnc(Nc3ccc(O)c(Br)c3)c2cc1OC | 14.5% |
| O=C1c2ccccc2-c2n[nH]c3cccc1c23 | 74.7% |
| O=c1cc(-c2cccc3c2Sc2ccccc2S3)oc(N2CCOCC2)c1 | 97.1% |
| O=C(NC(NC(=S)Nc1ccc(F)c([N+](=O)[O-])c1)C(Cl)(Cl)Cl)C(c1ccccc1)c1ccccc1 (stereo not drawn) | 108% |
| CCN(CC)C(=O)c1ccc(Nc2nc(OCC3CCCCC3)c3[nH]cnc3n2)cc1 | 57.3% |
| c1ccc(-c2[nH]ncc2-c2ccnc3ccccc23)nc1 | 90.1% |
| CCN(CC)CCNC(=O)c1c(C)[nH]c(/C=C2\C(=O)Nc3ccc(Cl)cc32)c1C | 7.11% |
| N#C/C(=C\c1ccc(O)c(O)c1)C(=O)NCc1ccccc1 | 89.6% |
| COc1cc2ncnc(Nc3cccc(Cl)c3)c2cc1OC | 24.5% |
| Ic1cccc(CSc2nnc(-c3ccncc3)o2)c1 | 93.8% |
| CN([C@@H](Cc1ccc(OS(=O)(=O)c2cccc3cnccc23)cc1)C(=O)N1CCN(c2ccccc2)CC1)S(=O)(=O)c1cccc2cnccc12 | 96.3% |
| CN(C)C[C@H]1CCn2c(c(C3=C(c4cn(C)c5ccccc45)C(=O)NC3=O)c3ccccc32)C1 | 26.6% |
| CCN(CC)CCNC(=O)c1c(C)[nH]c(/C=C2\C(=O)Nc3ccc(F)cc32)c1C | 31.2% |
| N#Cc1c(NC(=O)c2cccc3ccccc23)sc2c1CCCC2 | 97.7% |

Sample 4 — cell line: HaCaT; concentration: 100 µM; time: 36 h
| Compound | viability [%] |
| --- | --- |
| N[C@@H](Cc1c[nH]c2ccc(O)cc12)C(=O)O | 92 |
| CC(C)NCC(O)c1ccc(O)c(O)c1 (stereo not drawn) | 46.4 |
| Cn1c(=O)c2c(ncn2CC(O)CO)n(C)c1=O (stereo not drawn) | 93.8 |
| CC(C(=O)O)c1ccc2c(c1)[nH]c1ccc(Cl)cc12 (stereo not drawn) | 71.5 |
| COc1cc(NC(C)CCCN)c2ncccc2c1 (stereo not drawn) | 6.11 |
| COc1cc(NS(=O)(=O)c2ccc(N)cc2)nc(OC)n1 | 66 |
| CC(Cc1cccc(C(F)(F)F)c1)NCCOC(=O)c1ccccc1 (stereo not drawn) | 17.5 |
| COCC(=O)Nc1c(I)c(C(=O)NCC(O)CO)c(I)c(C(=O)N(C)CC(O)CO)c1I (mixture of isomers) | 100 |
| CNC(=O)c1cc(Oc2ccc(NC(=O)Nc3ccc(Cl)c(C(F)(F)F)c3)c(F)c2)ccn1 | 11.5 |

Repeated from above (sample 1):
| target | assay | remaining binding [%] |
| --- | --- | --- |
| LIM domain kinase 2 (LIMK2, Homo sapiens, UniProt P53671) | cell-free assay | 100 |
| Maternal embryonic leucine zipper kinase (MELK, Homo sapiens, UniProt Q14680) | cell-free assay | 96 |
| Casein kinase I isoform alpha-like (CSNK1A1L, Homo sapiens, UniProt Q8N752) | cell-free assay | 100 |
| Serine/threonine-protein kinase 36 (STK36, Homo sapiens, UniProt Q9NRP7) | cell-free assay | 79 |
| Ephrin type-A receptor 8 (EPHA8, Homo sapiens, UniProt P29322) | cell-free assay | 100 |
| Tyrosine-protein kinase receptor UFO (AXL, Homo sapiens, UniProt P30530) | binding | 93 |
| Epidermal growth factor receptor (EGFR, Homo sapiens, UniProt P00533, L858R) | cell-free assay | 97 |
